Results from different studies.
Several values in a cell are separate wells, animals, samples, runs or records. Numbers after ± are the reported error.

Compound = O=C1NC2(CC2)COc2ncc(F)cc2[C@H]2COCCN2c2ccn3ncc1c3n2; system = Sprague-Dawley rat, male, adrenals; conditions = oral, 5 mg/kg/day, 4 weeks dosing, end of recovery; quantity = organ-to-brain weight ratio; result = 2.78 ± 0.15%
Compound = Cc1ccc(OCC2CN(C)C2)cc1C(=O)N[C@H](C)c1cc(-c2cnn(C)c2)nc2ccccc12; tested on = Vero E6; conditions = 15.62 µM; quantity = viability; result = 94.5% and 97.1% and 98.6%
Compound = CN1Cc2cc(Cl)ccc2-n2c(nnc2C2CCN(c3cccc([18F])n3)CC2)C1; system = C57BL/6 mouse male, heart; conditions = intravenous, 3.7 MBq, 5 min; quantity = tissue uptake; result = 6.68 ± 0.7 %ID/g
Compound = CC[C@H](C)[C@H](NC(=O)[C@H](CCCNC(=N)N)NC(=O)[C@H](CCCCN)NC(=O)[C@H](Cc1ccc(O)cc1)NC(=O)[C@H](CC(=O)O)NC(=O)[C@H](C)NC(=O)CNC(=O)CCOCCOCCOCCNC(=O)CN1CCN(CC(=O)O)CCN(CC(=O)O)CCN(CC(=O)O)CC1)C(=O)N[C@H](C(=O)N[C@@H](CC(C)C)C(=O)N[C@@H](CCCCN)C(=O)N[C@H](C(=O)N[C@@H](CC(N)=O)C(N)=O)C(C)C)[C@@H](C)O [copper-64 labelled]; system = C57BL/6J mouse male, B16-F10 tumour, small intestine; conditions = intravenous, 1.85 MBq, 40 min, 67Ga complex; quantity = tissue uptake; result = 1.73 ± 0.687 %ID/g
Compound = CSCC[C@H](NC(=O)CNC(=O)[C@H](CCCCN)NC(=O)[C@H](CC(C)C)NC(=O)[C@@H]1CCCN1C(=O)[C@H](CO)NC(=O)[C@H](Cc1c[nH]cn1)NC(=O)[C@H](Cc1c[nH]c2ccccc12)NC(=O)[C@H](CCCNC(=N)N)NC(=O)[C@H](CC(C)C)NC(=O)[C@H](CCCNC(=N)N)NC(=O)[C@H](Cc1c[nH]c2ccccc12)NC(=O)[C@H](CS)NC(=O)CCCCCNC(=O)CN1CCN(CC(=O)O)CCN(CC(=O)O)CCN(CC(=O)O)CC1)C(=O)O [copper-64 labelled]; assay = ex vivo biodistribution; system = C57BL/6J mice bearing B16-F10 tumours, tumour; conditions = intravenous, 1.85 MBq, 30 h; quantity = tissue uptake; result = 2.98 %ID/g
Compound = CC[C@H](C)[C@H](NC(=O)[C@H](CCCCN)NC(=O)CNC(=O)[C@H](CC(C)C)NC(=O)[C@H](Cc1ccccc1)NC(=O)[C@H](CCCCN)NC(=O)[C@H](CO)NC(=O)[C@H](Cc1ccccc1)NC(=O)[C@H](Cc1c[nH]c2ccccc12)NC(=O)[C@H](CCC(N)=O)NC(=O)[C@@H](NC(=O)[C@H](Cc1ccccc1)NC(=O)CCCCCNC(=O)CN1CCN(CC(=O)O)CCN(CC(=O)O)CCN(CC(=O)O)CC1)C(C)C)C(=O)N[C@@H](CCC(=O)O)C(=O)N1CCC[C@H]1C(=O)N[C@@H](CC(=O)O)C(=O)N[C@H](C(=O)N[C@@H](CO)C(=O)N[C@@H](CCC(N)=O)C(=O)N[C@H](C(=O)N[C@@H](CCC(N)=O)C(=O)N[C@@H](CC(=O)O)C(=O)N1CCC[C@H]1C(=O)N[C@@H](CC(N)=O)C(=O)N[C@@H](CC(=O)O)C(=O)N[C@@H](CCC(N)=O)C(=O)N[C@@H](Cc1ccc(O)cc1)C(=O)N[C@@H](CCC(=O)O)C(=O)N1CCC[C@H]1C(=O)N[C@@H](Cc1ccccc1)C(=O)O)C(C)C)C(C)C [copper-64 labelled]; system = C57BL/6 mice, pancreas; conditions = vehicle, intratracheal instillation; quantity = tissue uptake; result = 1.13 ± 0.09 %ID/g
Compound = CC(C)C[C@@H](NC(=O)[C@@H](CCCNC(=N)N)NC(=O)[C@@H](Cc1c[nH]cn1)NC(=O)[C@@H](Cc1c[nH]c2ccccc12)NC(=O)[C@@H](Cc1c[nH]cn1)NC(=O)[C@@H](Cc1ccccc1)NC(=O)[C@H](NC(=O)[C@@H](Cc1ccc(O)cc1)NC(=O)CNC(=O)CNC(=O)CCOCCOCCOCCNC(=O)CN1CCN(CC(=O)O)CCN(CC(=O)O)CC1)[C@H](C)O)C(=O)N[C@H](CC(N)=O)C(=O)N1CCC[C@@H]1C(=O)O [gallium-68 labelled]; system = C57BL/6 mice, male, liver; conditions = intravenous, 1.85 MBq, 60 min, with: blocking antibody; quantity = tissue uptake; result = 1.07 ± 0.14 %ID/g
Compound = Cc1ccc(OCCN(C)C)cc1C(=O)N[C@H](C)c1cc(-c2cnn(CC(=O)N(C)C)c2)nc2ccccc12; tested on = African green monkey cells; conditions = 15.62 µM; quantity = viability; result = 92.8%
Compound = CC[C@H](C)[C@H](NC(=O)[C@H](CCCNC(=N)N)NC(=O)[C@H](CCCCN)NC(=O)[C@H](Cc1ccc(O)cc1)NC(=O)[C@H](CC(=O)O)NC(=O)[C@H](C)NC(=O)CNC(=O)CCOCCOCCOCCNC(=O)CN1CCN(CC(=O)O)CCN(CC(=O)O)CCN(CC(=O)O)CC1)C(=O)N[C@H](C(=O)N[C@H](C(=O)N[C@@H](CCCCN)C(=O)N[C@H](C(=O)N[C@@H](CC(N)=O)C(N)=O)C(C)C)C(C)C)[C@@H](C)O [copper-64 labelled]; assay = ex vivo gamma counting; system = C57BL/6J male mice, B16-F10 tumour, thymus; conditions = intravenous, 1.85 MBq, 100 min; quantity = tissue uptake; result = 0.609 ± 0.157 %ID/g
Compound = CCCC[C@H]1C(=O)N(C)[C@@H](CCCC)C(=O)N[C@@H](CCCNC(=O)CN2CCN(CC(=O)O)CCN(CC(=O)O)CCN(CC(=O)O)CC2)C(=O)N[C@H](C(=O)NCC(N)=O)CSCC(=O)N[C@@H](Cc2ccc(O)cc2)C(=O)N(C)[C@@H](C)C(=O)N[C@@H](CC(N)=O)C(=O)N2CCC[C@H]2C(=O)N[C@@H](Cc2c[nH]cn2)C(=O)N[C@@H](CC(C)C)C(=O)N(C)CC(=O)N[C@@H](Cc2c[nH]c3ccccc23)C(=O)N[C@@H](CO)C(=O)N[C@@H](Cc2c[nH]c3ccccc23)C(=O)N1C [gallium-68 labelled]; system = NOD/SCID mice with CHO-hPD-L1 xenograft, kidney; conditions = 30 min post injection; quantity = tissue uptake; result = 24.3 ± 0.73 %ID/g
Compound = C[C@H](O)[C@@H](NC(=O)[C@H]1CCCN1C(=O)[C@@H](CCCCN)NC(=O)[C@@H](CO)NC(=O)[C@@H](Cc1ccc(O)cc1)NC(=O)[C@@H](CC(N)=O)NC(=O)CCOCCOCCOCCNC(=O)CN1CCN(CC(=O)O)CCN(CC(=O)O)CCN(CC(=O)O)CC1)C(=O)N[C@H](CC(=O)O)C(=O)N[C@H](CCCNC(=N)N)C(=O)N[C@H](CCC(N)=O)C(=O)N[C@H](Cc1ccc(O)cc1)C(=O)N[C@H](Cc1c[nH]cn1)C(=O)N[C@H](Cc1ccccc1)C(N)=O [gallium-68 labelled]; system = BALB/c nude mice U-87 MG tumour, liver; conditions = intravenous, 1.85 MBq, 0.08333 h, radiolabelled; quantity = tissue uptake; result = 1.06 ± 0.26 %ID/g

A few entries again:
Compound = Cc1ccc(OCC2CN(C)C2)cc1C(=O)N[C@H](C)c1cc(-c2cnn(C)c2)nc2ccccc12; tested on = Vero E6; conditions = 15.62 µM; quantity = viability; result = 94.5% and 97.1% and 98.6%
